Assay results gathered from unrelated publications.
A part holds a random share of what one study measured. Substitutions count along the parent as printed.

Set 1
Target: RNA binding protein fox-1 homolog 2, RRM domain, GST-SBP tag (RBFOX2, Homo sapiens, UniProt O43251-10, residues 100-194)
Method: RNA Bind-n-Seq
Molecule type: RNA
Medium: in vitro
Concentration: 365 nM
Setting: natural RNA segment, single round, ends assumed
Baseline: no-protein control
Reading: higher = stronger binding
Residues (chain): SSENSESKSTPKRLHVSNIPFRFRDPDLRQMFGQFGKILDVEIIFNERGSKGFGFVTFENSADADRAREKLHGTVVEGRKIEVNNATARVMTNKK
Under “RBNS enrichment (R)”, `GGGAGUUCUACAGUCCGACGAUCGCCUGUUCUGCUCUUAUUUAACAUGAAGCACUGUGUACUUGUUUCUUCUCUCCAAAGUAAAAUUAGAUUAUUUAUAACUUCGAUCGCCUCGGCUAGGUUUCCAAGUCACUUGGAAUUCUCGGGUGCCAA` is recorded as 0.961.
Under “RBNS enrichment (R)”, `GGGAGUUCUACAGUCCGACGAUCUUAUAAUAAAGAUAUAAGUGGAUUUUAAGGUUCCAUUUUUUUAAGGUUACCCUUGUUUUUCAAAGGUAUUUUUUAAACAGAUCUUUAAUAGAAUAUUUAAGCUGUGACUGUGGAAUUCUCGGGUGCCAA` is recorded as 0.434.
`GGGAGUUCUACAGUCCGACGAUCGCUUUAUCAUUCUGAAAACUCAGGAUACAGCUUAUUCAUAGCAUUGUGGGUCUCUCCAGUAAGAAAGAUGCUAAAAGUUUUGUGCACUUUUUGUGUGUGUAAUGCAAAUUUGGAAUUCUCGGGUGCCAA` — result for “RBNS enrichment (R)”: 0.484.
`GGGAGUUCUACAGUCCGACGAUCCAUGGUUUAUUUAUGUUGUAGCAAAGUUGGCUCUACAUAAACAUUGUUCUUAUUUUAAAAUUAACACUAUGUGUUCAGUUUUCUUGUGGGCUUCUGAAAGUUGCCAUCUUUGGAAUUCUCGGGUGCCAA`: “RBNS enrichment (R)” 0.425.
`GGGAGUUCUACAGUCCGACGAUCUAUCUGGGCCUGGCCAUGGCUGUGUUCUUCAUGUGUUGAUUUUAUUUGACCCCUGGAGUGGUGGGUCUCAUCUUUCCCAUCUCGCCUGAGAGCGGCUGAGGGCUGCCUCAUGGAAUUCUCGGGUGCCAA`: “RBNS enrichment (R)” 0.563.
`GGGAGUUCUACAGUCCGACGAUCAGGCGGUAGCUGGUUCCCAUGCUCCAGGAUGGAGGUGGCAGCUGCCCUGCCAUCCCUUCUGUCUGCCAUGAGAGGGACUCUCUGAGUGUCGCCUGGCCCCACGUGUGGUGUGGAAUUCUCGGGUGCCAA`: “RBNS enrichment (R)” 0.385.
Under “RBNS enrichment (R)”, `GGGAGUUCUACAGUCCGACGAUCUCUAGAAGUAUACCGACCAAAAUCUAGUAUUGACAUGAUCUUGACAGGCUGGACCUGUGAGAUAUGGUUUGAAUUUUAACCAGUUUAUCACAUAACCUCUAGAGACCAUGUGGAAUUCUCGGGUGCCAA` is recorded as 0.267.
For `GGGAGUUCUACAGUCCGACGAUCGGAGGAUCCCUCCUCCCCAGAUAAAGACAGGAGAGAACUCAUGUUUUAAUAUUUGAUGCUCAUAUGUGUCUUUAGUGUGAGCUCUUGUGUUUUGAAAUGAUUGCUUCAGUUGGAAUUCUCGGGUGCCAA`, “RBNS enrichment (R)” read 0.457.
`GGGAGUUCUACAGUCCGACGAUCGUUAAAGACCAGACGUUCUAGAAAAGACCCCUCCUCUCAUGAGCUCCCCCAUCCCUGCUACAGAACACAGCACCCAUGGCGCCUGCAGUGGACUGGCCCCUUAAUUCCCAUGGAAUUCUCGGGUGCCAA` — result for “RBNS enrichment (R)”: 0.604.
`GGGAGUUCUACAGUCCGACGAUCUCAGUGCUUCACAGUGAAGGGAAAAAAGCCUAGACAAACAUUUUGUCAGAACCUUGCAAUAAGCCAAGGUAUUACCAGUAAAUUGGUUGUAUAUACAAUAAAAUUGCACCUGGAAUUCUCGGGUGCCAA` — result for “RBNS enrichment (R)”: 0.623.
`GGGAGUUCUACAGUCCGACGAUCAGAGCUGGGUCACCGGUGCCGAUGCUCUGGCCCUCCCCAAUACGCUGCUUCGUCCCACUGCACCGCCUGGCUGAGGGCGUUAGGGGCUGUGCCUCUUGUGAGGGCCAUUUUGGAAUUCUCGGGUGCCAA` — result for “RBNS enrichment (R)”: 0.392.
`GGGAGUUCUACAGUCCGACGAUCCACACUUCUCUUAUUUCUCCUAGAGCCCCGUGCCCCUCUGAAGUGUUACCACAAUCUAGCUUACCUAGCAGCCGUUGAUUGUUUUUUUUCCAUCUGAGCAAACAGGUAAUUGGAAUUCUCGGGUGCCAA`: “RBNS enrichment (R)” 0.435.

Set 2
Target: Histone acetyltransferase KAT6A, winged helix 1, GST fusion (KAT6A, Homo sapiens, UniProt Q92794, residues 1-85)
Method: protein binding microarray
Molecule type: double-stranded DNA, one strand shown
Medium: in vitro
Concentration: not given
Setting: 8-mer, flanks averaged, mean of 2 arrays, mostly near background
Baseline: not given
Reading: higher = stronger binding
Target sequence (chain): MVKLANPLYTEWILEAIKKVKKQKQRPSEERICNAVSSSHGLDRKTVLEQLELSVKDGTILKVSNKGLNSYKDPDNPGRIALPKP
`GTAGGTGA` has an E-score of -0.13.
`ACTTCTAG` gave an E-score of -0.0342.
The E-score of `GGGCTCAA` is reported as 0.04.
With `GGGCTTCA` the E-score was 0.00403.
The E-score of `GTGGTTCA` is reported as -0.0609.
`CGCTACAC` gave an E-score of 0.22.
`ACGGTCAC` gave an E-score of 0.12.
For `TCTAGAGA`, the E-score was -0.285.
`ACCAAGTC` has an E-score of -0.171.
For `TAGTTACA`, the E-score was -0.0536.
For `CGCCGCTA`, the E-score was 0.429.
`GCGGATAA` gave an E-score of 0.243.
`ACTGCTCT` has an E-score of -0.0376.
`CGATGCCG` has an E-score of 0.37.
The E-score of `CATGCTAC` is reported as -0.0811.
`ATACTACC` has an E-score of 0.0638.
The E-score of `CCGTCTGC` is reported as 0.217.
`GCCAACAC` gave an E-score of -0.0112.

Set 3
Target: Centromere-binding protein 1, full length, N-terminal tag (CBF1, Saccharomyces cerevisiae, UniProt P17106, residues 1-351)
Chain of UniProt P17106 (whole entry, looked up): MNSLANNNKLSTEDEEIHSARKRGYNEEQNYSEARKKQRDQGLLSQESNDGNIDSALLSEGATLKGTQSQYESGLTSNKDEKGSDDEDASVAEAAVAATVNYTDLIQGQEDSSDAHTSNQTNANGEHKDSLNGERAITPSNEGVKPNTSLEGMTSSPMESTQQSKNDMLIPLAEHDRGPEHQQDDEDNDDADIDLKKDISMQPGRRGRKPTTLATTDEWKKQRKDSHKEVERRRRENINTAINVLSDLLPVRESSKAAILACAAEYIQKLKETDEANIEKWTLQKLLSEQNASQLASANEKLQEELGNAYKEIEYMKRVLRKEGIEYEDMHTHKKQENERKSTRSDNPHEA
Method: protein-binding microarray
Molecule type: double-stranded DNA, one strand shown
Medium: in vitro
Concentration: 0.8 µM
Setting: whole 60-bp probe, no competitor
Reading: higher = stronger binding
The fluorescence intensity of `CTAAAAAAGAGCATTCACGCGATATACGATTTTTTCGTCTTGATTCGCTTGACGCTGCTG` is reported as 568 a.u.
With `GAAATCACTTTCCGTTGCGTGACTATTGATGATTAGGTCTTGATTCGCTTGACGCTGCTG` the fluorescence intensity was 748 a.u.
The fluorescence intensity of `CTATGGCGCTGCTACGCCGTGACAAGTCATTTCTTCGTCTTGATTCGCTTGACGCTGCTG` is reported as 562 a.u.
For `GAATTATCTTTTTAACATCAGAATTTCAACAAATAGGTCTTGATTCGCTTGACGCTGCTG`, the fluorescence intensity was 583 a.u.
The fluorescence intensity of `TGTACGAAGCTATGCCATCAGTATATAGTAGTTAGGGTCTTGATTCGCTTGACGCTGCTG` is reported as 506 a.u.
With `CTATGAGTCTTATATGACGTCACTAGAAGCTCATTCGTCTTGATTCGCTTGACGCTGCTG` the fluorescence intensity was 506 a.u.
For `CCTAACTACTATAATGAACAGGTATAGCTTCGTACAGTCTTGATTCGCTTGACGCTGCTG`, the fluorescence intensity was 540 a.u.
With `TGTACGAAGCTATAGCACGAGAGTATAGTAGTTAGGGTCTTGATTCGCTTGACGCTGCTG` the fluorescence intensity was 576 a.u.
`GAAGTACACTCTACAGCCGTGACTGAGAAAAAGTAGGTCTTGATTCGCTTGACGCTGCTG` gave a fluorescence intensity of 715 a.u.
`GAAATGTTAAAGTGTGTGGTGGTAAGACGTTATTAGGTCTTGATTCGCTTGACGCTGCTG` gave a fluorescence intensity of 534 a.u.
The fluorescence intensity of `CTAATTCAAATGCGTGTGACAATATAGCGACGGTTCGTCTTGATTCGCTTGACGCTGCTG` is reported as 751 a.u.
With `GAATATATGTATGGACACGTTTCATTTAGGATTTAGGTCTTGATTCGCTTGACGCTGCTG` the fluorescence intensity was 578 a.u.
`GAAAAGAGGAGCAGAAACGTGGCAATCTAAAGATAGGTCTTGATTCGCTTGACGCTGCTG` gave a fluorescence intensity of 518 a.u.
The fluorescence intensity of `CTATAGGAACAGTGTCATGAAATAATGTTTTGTTTCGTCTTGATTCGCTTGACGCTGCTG` is reported as 527 a.u.
For `GAATTTTTTTGGGTTTACGTGATACTGCGTAAATAGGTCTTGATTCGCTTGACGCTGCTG`, the fluorescence intensity was 572 a.u.
With `GAACGGTCATTCTACATCATGAATATTAATTTATAGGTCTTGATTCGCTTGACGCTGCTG` the fluorescence intensity was 547 a.u.
The fluorescence intensity of `GAATAATATATTGGTAGTGTGACTACTAGTTGTTAGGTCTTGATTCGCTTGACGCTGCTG` is reported as 910 a.u.
With `CCTAACTACTATAACGTGAAAATATAGCTTCGTACAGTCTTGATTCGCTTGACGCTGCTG` the fluorescence intensity was 563 a.u.
With `GAACTGTAAAATGAAAACGTGCGGAATCTTCATTAGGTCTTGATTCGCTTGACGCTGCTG` the fluorescence intensity was 639 a.u.

Set 4
Target: CCNB2, cyclin fold, Cln2 fusion (human)
Method: yeast growth competition, sequencing
Medium: yeast
Setting: weak parent motif
Baseline: not given
Reading: higher = stronger binding
Parent: WEE1 docking peptide (human); HKTFRKLRLFDTP
For `HKTFNKLRLFDTP [R5N]`, “normalised enrichment score” read -4.21.
Under “normalised enrichment score”, `HKTFRKLQLFDTP [R8Q]` is recorded as 0.894.
For `KKTFRKLRLFDTP [H1K]`, “normalised enrichment score” read 1.34.
For `HKTFRKLRLFFTP [D11F]`, “normalised enrichment score” read 0.0535.
`HKTFRKLRLFGTP [D11G]` — result for “normalised enrichment score”: -0.228.
`HKTFAKARLFDTP [R5A L7A]`: “normalised enrichment score” 0.837.
`HKEFRKLRLFDTP [T3E]` — result for “normalised enrichment score”: 0.00365.
`HKTFRKLRLKDTP [F10K]` — result for “normalised enrichment score”: 0.518.
`HKTFRKLRLFDTA [P13A]`: “normalised enrichment score” 0.161.
Under “normalised enrichment score”, `HKTERKLRLFDTP [F4E]` is recorded as 0.0544.
Under “normalised enrichment score”, `HKTFRKLRLFYTP [D11Y]` is recorded as -0.119.
`HKTFRKMRLFDTP [L7M]`: “normalised enrichment score” 0.272.
For `HKTFRKLRLFKTP [D11K]`, “normalised enrichment score” read 0.703.
`HKTFRKLALFDTP [R8A]`: “normalised enrichment score” 0.0969.
`HKTFRKERLFDTP [L7E]` — result for “normalised enrichment score”: 0.647.
For `VKTFRKLRLFDTP [H1V]`, “normalised enrichment score” read -0.0663.
For `HKFFRKLRLFDTP [T3F]`, “normalised enrichment score” read 0.049.
For `HKTFRALRLFDTP [K6A]`, “normalised enrichment score” read 0.101.
`HKTFRKLRLFDTM [P13M]` — result for “normalised enrichment score”: 1.3.
For `HKTFRKLRLFCTP [D11C]`, “normalised enrichment score” read 0.611.
For `HKTFRKLRLFDSP [T12S]`, “normalised enrichment score” read 0.846.
`HKTFRKLELFDTP [R8E]`: “normalised enrichment score” 0.449.
`HKTFRKLRDFDTP [L9D]` — result for “normalised enrichment score”: 0.342.
For `HKTFRKLSLFDTP [R8S]`, “normalised enrichment score” read 0.681.
`HKHFRKLRLFDTP [T3H]` — result for “normalised enrichment score”: 0.693.

Set 5
Target: Sal-like protein 4, full length isoform A (SALL4, Homo sapiens, UniProt Q9UJQ4, residues 1-1053)
Chain of UniProt Q9UJQ4 (whole entry, looked up): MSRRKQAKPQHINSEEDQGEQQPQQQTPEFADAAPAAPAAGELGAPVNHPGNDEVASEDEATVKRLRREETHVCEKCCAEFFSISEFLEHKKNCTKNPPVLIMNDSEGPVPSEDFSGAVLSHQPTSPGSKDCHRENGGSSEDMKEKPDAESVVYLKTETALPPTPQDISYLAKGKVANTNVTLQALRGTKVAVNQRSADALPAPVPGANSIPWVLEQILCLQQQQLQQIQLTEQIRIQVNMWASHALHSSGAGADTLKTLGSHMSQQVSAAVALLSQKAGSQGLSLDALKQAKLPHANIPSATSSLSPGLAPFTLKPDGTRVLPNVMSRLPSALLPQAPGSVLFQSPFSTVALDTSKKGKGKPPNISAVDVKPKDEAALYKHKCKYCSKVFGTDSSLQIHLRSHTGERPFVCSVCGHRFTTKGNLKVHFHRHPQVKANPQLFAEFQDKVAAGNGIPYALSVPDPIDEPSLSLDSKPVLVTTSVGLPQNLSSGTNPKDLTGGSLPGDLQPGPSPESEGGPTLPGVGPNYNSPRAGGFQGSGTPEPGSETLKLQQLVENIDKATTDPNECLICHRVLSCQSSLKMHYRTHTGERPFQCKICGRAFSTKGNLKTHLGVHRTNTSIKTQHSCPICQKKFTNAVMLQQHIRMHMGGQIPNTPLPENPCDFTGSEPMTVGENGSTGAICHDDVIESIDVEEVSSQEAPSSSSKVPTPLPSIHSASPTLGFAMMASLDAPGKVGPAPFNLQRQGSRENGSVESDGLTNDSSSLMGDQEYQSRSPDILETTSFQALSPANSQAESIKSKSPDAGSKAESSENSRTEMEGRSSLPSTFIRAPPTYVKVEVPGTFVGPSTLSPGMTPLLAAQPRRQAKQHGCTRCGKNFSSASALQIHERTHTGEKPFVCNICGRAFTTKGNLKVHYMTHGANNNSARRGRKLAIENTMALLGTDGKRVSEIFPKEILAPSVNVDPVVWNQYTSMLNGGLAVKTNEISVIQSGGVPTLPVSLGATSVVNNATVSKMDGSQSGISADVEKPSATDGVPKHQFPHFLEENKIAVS
Method: universal PBM
Molecule type: double-stranded DNA, one strand shown
Medium: in vitro
Concentration: 600 nM
Setting: 8-mer, flanks averaged, mean of replicates
Reading: higher = stronger binding
For `TAGTGGAA`, the E-score was 0.00105.
`ATTCATAG` gave an E-score of 0.316.
`CAAACTTA` gave an E-score of 0.191.
The E-score of `CCGCGGGC` is reported as -0.376.
`AATAAGGT` has an E-score of 0.157.
For `CACCACGG`, the E-score was -0.318.
`AAGACTCT` gave an E-score of 0.11.
For `AGAGACGC`, the E-score was -0.198.
`CAATGGTC` has an E-score of 0.00965.
With `GTGATGAA` the E-score was 0.0405.
The E-score of `CAAAATTA` is reported as 0.363.
`ACTGGGAC` gave an E-score of -0.0757.
With `ACCCAAAG` the E-score was -0.0768.
With `CCCCTTTA` the E-score was -0.0999.
`ATGCGTAC` has an E-score of 0.184.
`CAAGCGTC` gave an E-score of -0.259.
The E-score of `AGTCAACG` is reported as -0.0514.
`CAAACGTC` gave an E-score of -0.00253.
With `TCTTGACA` the E-score was 0.0841.
For `TCACCGCA`, the E-score was -0.109.
`ACTACAAT` has an E-score of 0.209.
The E-score of `GCGTTTAA` is reported as 0.19.
For `AACAGAAT`, the E-score was 0.15.
`CTGCCTAC` gave an E-score of 0.0178.
The E-score of `GACTTTGA` is reported as 0.131.
